Assay results of several laboratories.
Each line is one published result; not all experiments were run side by side. Numbers after ± are the reported error.

SMILES | cell line | observed | technique | concentration | time | notes | inhibition [%]
Cc1nc(=S)[nH]c(C)c1/N=N/c1nnc(S)s1 | Vero | cell viability | MTT | 10.0 µg/mL |  |  | 17.7 ± 0.518
Cc1cc(C)nc(SCC(=O)Nc2ncc(Cc3cccc(OCc4cn(Cc5ccc(C#N)cc5)nn4)c3)s2)n1 | HGC-27 | cell viability | MTS | 10 µM |  |  | 53.1 ± 10.7
CC(C)(C)c1ccc(NC(=O)c2cnn(-c3ccc([N+](=O)[O-])cc3)c2C(F)(F)F)cc1 | LX-2 | cell growth or viability | MTS | 50 µM | 72 h |  | 14.5
CCOC(=O)c1c(C(=O)OC)cn(CC(c2cn(C)c3ccccc23)c2cn(C)c3ccccc23)c1C | human Fibroblast | cell growth or viability | MTS | 20 µM | 24 h |  | 8.2
Cc1nc(=S)[nH]c(C)c1/N=N/c1nnc(S)[nH]1 | Vero | cell viability | MTT | 10.0 µg/mL |  |  | 22.9 ± 0.61
Cc1nc2c(F)cc(-c3nc(Nc4ccc(C(=O)NCCCCCC(=O)NO)cc4)ncc3F)cc2n1C(C)C | SK-OV-3 | cell growth or viability | CCK-8 | 0.3 µM | 48 h |  | 56.5
Nc1ncn([C@@H]2O[C@H](CO)[C@@H](O)[C@H]2O)c(=O)n1 | AML blasts, primary, RUNX1-mutated | CD34+ blast expansion |  | 2400 nM |  | HUVEC co-culture | 11
COc1cccc2c1cc1c3c(cc4c(c32)OCO4)[C@@H]2c3c4c5c(cc6c(c5c5cccc(OC)c35)OCO6)CCN4[C@@H]2N1C (racemic) | MOLT-3 | cytotoxicity | XTT | 50 µg/mL | 48 h | 20% fetal bovine serum | < 50
Cc1cc(C)nc(SCC(=O)Nc2ncc(Cc3cccc4ccccc34)s2)n1 | HGC-27 | cell viability | MTS | 10 µM |  |  | 27.2 ± 10.1
CSc1ccc(NC(=O)c2cnn(-c3ccc([N+](=O)[O-])cc3)c2C(F)(F)F)cc1 | LX-2 | cell growth or viability | MTS | 50 µM | 72 h |  | 11.2
Cc1[nH]c(=S)[nH]c(=O)c1/N=N/c1nnc(S)s1 | Vero | cell viability | MTT | 2.5 µg/mL |  |  | 18.42 ± 0.04
Cc1cc(C)nc(SCC(=O)Nc2ncc(Cc3cccc(OCc4cn(-c5ccc(Cl)cc5)nn4)c3)s2)n1 | HGC-27 | cell viability | MTS | 10 µM |  |  | 13.5 ± 2.9

Repeated from above:
SMILES | cell line | observed | technique | concentration | time | notes | inhibition [%]
COc1cccc2c1cc1c3c(cc4c(c32)OCO4)[C@@H]2c3c4c5c(cc6c(c5c5cccc(OC)c35)OCO6)CCN4[C@@H]2N1C (racemic) | MOLT-3 | cytotoxicity | XTT | 50 µg/mL | 48 h | 20% fetal bovine serum | < 50
